Assay results from different studies.
Parts stem from different laboratories: compare values within a part only. Substitutions count along the parent as printed.

Study 1
Target: RING finger protein unkempt homolog, zinc fingers 1-6, GST-SBP tag (UNK, Homo sapiens, UniProt Q9C0B0, residues 30-357)
Sequence of UniProt Q9C0B0 (30-357, looked up): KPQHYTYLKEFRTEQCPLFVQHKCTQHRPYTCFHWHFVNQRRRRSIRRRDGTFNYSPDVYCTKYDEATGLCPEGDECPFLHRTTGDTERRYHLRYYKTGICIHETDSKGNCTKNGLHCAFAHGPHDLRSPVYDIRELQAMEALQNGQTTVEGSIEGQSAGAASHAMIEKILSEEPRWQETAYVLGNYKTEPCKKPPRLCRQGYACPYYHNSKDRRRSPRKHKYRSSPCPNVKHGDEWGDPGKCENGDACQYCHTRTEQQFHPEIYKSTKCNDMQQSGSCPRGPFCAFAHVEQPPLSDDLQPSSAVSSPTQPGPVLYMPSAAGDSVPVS
Method: RNA Bind-n-Seq
Molecule type: RNA
Medium: in vitro
Tested at: not given
Setting: RNA with constant flanks, human and mouse sites, ends assumed
Reference: input RNA pool
Reading: higher = stronger binding
Shared flanks, not repeated: GGGAGUUCUACAGUCCGACGAUC … CAACAGAGGAUUGAGCAUCA
For `CAGAGGUGGAGUGAAGUGGAUUGUUCCAUCAGGAACUCAAUCUUCACGACACUGAGCAAUGUGUUGCAGUAAACAAGGAAGAAAUCCCUGCUCUUUGUUCUCCCUACCCUUAAUUGAACA`, the bound/input enrichment was 0.138 ratio.
With `CUCAGGUGUAAAAGCCACACGAAGAAAUGAGCUGUAAGCGGUGGCAUCACUUUGGAUACUUAGUUUAAAAGUAUAUGUGUGAUUUUCUAUGUUCCAAAACUAUCAUGAGUUUUUUGGCCC` the bound/input enrichment was 4.04 ratio.
`UCUUAAUCAUAGUCUACCAUCAAAUAUUUUAGGAGUAUCUUUAAUGUUUAGAUAGUAUAUUAGCAGCAUGCAAUAAUUACAUCAUAAGUUCUCAAGCAGAGGCAGUCUAUUGCAAGGACC` has a bound/input enrichment of 1.8 ratio.
For `CAGCGCGUGGGACGAAUUCAUACCAGUGUGCACUGCAAGCUGAGGUAUGGGCUUUUGGCCGCCAUUCUUGGUGAUAAGACAACCAAAAAGCUGCAUGAGUACAGCCGAGUGAUAACAGUA`, the bound/input enrichment was 0.15 ratio.
`CCACUGUCUUCAUUGAGAGAAGCGACUUUAAGGAGGAGUCAGAACCAGGCUAUAAGCGCCUAGCUUCGGGCCAGCCUGUGGGCCUGAGACACACUGGUUAUGUCAUUGAACUGCAGAAUA` has a bound/input enrichment of 0.228 ratio.
With `UCCCCCUCACUUUUUCUCCUUAUUAUUGAGAGUAUAAACCUGCAAAGCUCAGCUCUACUUUGGUUUUGAAAGUUGAAGCUUCUCUGCUUCCGUGCGAGCACAGGCCUCUGUCCCCUUCGA` the bound/input enrichment was 0.297 ratio.
For `AUCUAUGAACCAAAGACGUUUAAAUCUUUGGCUGCAUUGGCUAAGCGGAGGCAGCAGGAGGGAUUUGCUGCAGCUUUGGGGGAUGGAAAGGAGCCUGAAGGUAUCUUUUCCAGAGUGGUG`, the bound/input enrichment was 0.328 ratio.
For `UUAGGUUGGAUGCAUCACACUGUGGAUCUCCUGGGAGAUAAGGCCACCAAGGAAAGUUAUGCUAUUCAGUAUCUCCAGAAGUCCUUGGAAGCAGAUCCAAAUUCUGGCCAGUCCUGGUAU`, the bound/input enrichment was 0.157 ratio.

Study 2
Partner: ARF22 498-598 (Arabidopsis thaliana, UniProt Q9C8N7)
Method: two-hybrid
Reference: out of 4 tests
Reading: higher = firmer interaction
B1: IAA18 (Arabidopsis thaliana, UniProt O24408); chain MEGYSRNGEISPKLLDLMIPQERRNWFHDEKNSVFKTEEKKLELKLGPPGEEDDDESMIRHMKKEPKDKSILSLAGKYFSPSSTKTTSHKRTAPGPVVGWPPVRSFRKNLASGSSSKLGNDSTTSNGVTLKNQKCDAAAKTTEPKRQGGMFVKINMYGVPIGRKVDLSAHNSYEQLSFTVDKLFRGLLAAQRDFPSSIEDEKPITGLLDGNGEYTLTYEDNEGDKMLVGDVPWQMFVSSVKRLRVIKTSEISSALTYGNGKQEKMRR
B2: ARF20 484-590 (Arabidopsis thaliana, UniProt Q9C7I9); chain IEIQSKQFGSTRTCTKVQMQGVTIGRAVDLSVLNGYDQLILELEKLFDLKGQLQTRNQWKIAFTDSDGYEMLVGDDPWPEFCKMVKKILIYSKEEVKNLKSSKSLSS
B3: IAA33 (Arabidopsis thaliana, UniProt Q9FKM7); chain MNSFEPQSQDSLQRRFHQDNSTTQQPRDTTTPFIPKPASKNHNNSNSSSGAAGRSFQGFGLNVEDDLVSSVVPPVTVVLEGRSICQRISLDKHGSYQSLASALRQMFVDGADSTDDLDLSNAIPGHLIAYEDMENDLLLAGDLTWKDFVRVAKRIRILPVKGNTRQVKRNE
B4: IAA31 (Arabidopsis thaliana, UniProt Q8H174); chain MEVSNSCSSFSSSSVDSTKPSPSESSVNLSLSLTFPSTSPQREARQDWPPIKSRLRDTLKGRRLLRRGDDTSLFVKVYMEGVPIGRKLDLCVFSGYESLLENLSHMFDTSIICGNRDRKHHVLTYEDKDGDWMMVGDIPWDMFLETVRRLKITRPERY
B5: IAA14 (Arabidopsis thaliana, UniProt Q38832); chain MNLKETELCLGLPGGTETVESPAKSGVGNKRGFSETVDLKLNLQSNKQGHVDLNTNGAPKEKTFLKDPSKPPAKAQVVGWPPVRNYRKNVMANQKSGEAEEAMSSGGGTVAFVKVSMDGAPYLRKVDLKMYTSYKDLSDALAKMFSSFTMGSYGAQGMIDFMNESKVMDLLNSSEYVPSYEDKDGDWMLVGDVPWPMFVESCKRLRIMKGSEAIGLAPRAMEKFKNRS
B6: ARF13 (Arabidopsis thaliana, UniProt Q9FX25); chain MENNGEMNAQPELSVDITKTYMYEKLWNICAGPLCVLPKPGEKVYYFPQGHIELIENSTRDELDHIRPIFDLPSKLRCRVVAIDRKVDKNTDEVYAQISLMPDTTEVMTHNTTMDTRRPIVYFFSKILTASDVSLSGGLIIPKQYAIECFPPLDMSQPISTQNLVAKDLYGQEWSFKHVFRGTPQRHMFTSGGGWSVFATTKRLIVGDIFVLLRGENGELRFGIRRAKHQQGHIPSSVISANCMQHGVIASVVNAFKTKCMFNVVYKPSSSQFVISYDKFVDAMNNNYIVGSRFRMQFEGKDFSEKRYDGTIIGVNDMSPHWKDSEWRSLKVQWDELSPFLRPNQVSPWDIEHLIPSSDISQSSLKKKKHWLQLNEIGATLSNLWTCQEIGQRSMNSPISVPEFSYPNAIEDSKFLSGLLLNHSLLAIPNENYNSDQMIQPRKEDITTEATTSCLLFGVDLTKVSKSKDSICPIESCKKSLPQDKKFDQTQPLRSPKEVQSTEFNFTRSRIKVHMQGVAISRAVDLTAMHGYNQLIQKLEELFDLKDELRTRNQWEIVFTNNEGAEMLVGDDPWPEFCNMAKRIFICSKEEIKKMKLKNKFFQPESKALTSSDVPPNVTDN
B7: ARF5 788-902 (Arabidopsis thaliana, UniProt P93024); chain ATPRVRTYTKVQKTGSVGRSIDVTSFKDYEELKSAIECMFGLEGLLTHPQSSGWKLVYVDYESDVLLVGDDPWEEFVGCVRCIRILSPTEVQQMSEEGMKLLNSAGINDLKTSVS
Target sequence (chain): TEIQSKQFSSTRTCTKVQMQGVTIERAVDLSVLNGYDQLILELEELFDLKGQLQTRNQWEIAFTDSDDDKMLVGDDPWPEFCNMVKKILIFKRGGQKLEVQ
For `B1 (IAA18)`, the positive tests was 2.
`B2 (ARF20 484-590)` has a positive tests of 1.
`B3 (IAA33)` has a positive tests of 1.
`B4 (IAA31)` has a positive tests of 1.
`B5 (IAA14)` gave a positive tests of 2.
For `B6 (ARF13)`, the positive tests was 0.
`B7 (ARF5 788-902)` has a positive tests of 0.

Study 3
Target: CCND2, cyclin fold, Cln2 fusion (human)
Method: yeast growth competition, sequencing
Medium: yeast
Setting: strong parent motif
Reference: not given
Reading: higher = stronger binding
Parent: viral docking peptide; YKVKRRLVFGADD
Under “normalised enrichment score”, `YKVKRRLYFGADD [V8Y]` is recorded as 0.678.
`YKVKRRLVTGADD [F9T]`: “normalised enrichment score” 0.466.
Under “normalised enrichment score”, `YKVMRRLVFGADD [K4M]` is recorded as -0.14.
Under “normalised enrichment score”, `YKVKRRLVFGAWD [D12W]` is recorded as 0.698.
For `YLVKRRLVFGADD [K2L]`, “normalised enrichment score” read 0.794.
Under “normalised enrichment score”, `YKVKRRLVFQADD [G10Q]` is recorded as 1.02.
For `YKVKRRLVFYADD [G10Y]`, “normalised enrichment score” read 1.06.
Under “normalised enrichment score”, `YMVKRRLVFGADD [K2M]` is recorded as 1.35.
Under “normalised enrichment score”, `YKVKRREVFGADD [L7E]` is recorded as -0.09.
`YKVKRRLVQGADD [F9Q]` — result for “normalised enrichment score”: 0.321.
`YKVKDRLVFGADD [R5D]` — result for “normalised enrichment score”: 0.0198.
`YQVKRRLVFGADD [K2Q]`: “normalised enrichment score” 1.72.
`YKVKRRWVFGADD [L7W]`: “normalised enrichment score” -0.306.
For `YNVKRRLVFGADD [K2N]`, “normalised enrichment score” read 1.73.
Under “normalised enrichment score”, `YKVKRRLSFGADD [V8S]` is recorded as 2.83.

Study 4
Target: vanadate, free oxyanion
Method: microfluidic competitive inhibition
Medium: in vitro, cell-free expressed
Tested at: not given
Setting: derived from inhibition constants, unchanged parent 676 nM
Reading: lower = stronger binding
Parent: PafA, mature enzyme, eGFP fusion (Elizabethkingia meningoseptica, UniProt Q9KJX5); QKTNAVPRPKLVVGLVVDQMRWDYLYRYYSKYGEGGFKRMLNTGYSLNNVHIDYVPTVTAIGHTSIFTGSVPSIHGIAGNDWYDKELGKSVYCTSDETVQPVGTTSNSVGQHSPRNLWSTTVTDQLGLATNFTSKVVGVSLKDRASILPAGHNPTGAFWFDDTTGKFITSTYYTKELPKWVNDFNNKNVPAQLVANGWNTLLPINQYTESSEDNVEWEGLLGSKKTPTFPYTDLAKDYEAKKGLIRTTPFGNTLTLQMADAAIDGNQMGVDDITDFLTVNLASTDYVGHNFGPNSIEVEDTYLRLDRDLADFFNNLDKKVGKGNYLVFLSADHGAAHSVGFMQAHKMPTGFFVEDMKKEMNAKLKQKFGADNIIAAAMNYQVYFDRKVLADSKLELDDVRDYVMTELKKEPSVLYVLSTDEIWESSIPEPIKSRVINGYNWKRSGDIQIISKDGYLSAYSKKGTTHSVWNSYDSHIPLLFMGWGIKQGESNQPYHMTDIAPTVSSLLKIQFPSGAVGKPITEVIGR
`E216V` — result for “oxyanion analog dissociation constant”: 681 nM.
For `D81G`, “oxyanion analog dissociation constant” read 1780 nM.
`R27G`: “oxyanion analog dissociation constant” 724 nM.

Excerpt of the above (study 1):
`CCACUGUCUUCAUUGAGAGAAGCGACUUUAAGGAGGAGUCAGAACCAGGCUAUAAGCGCCUAGCUUCGGGCCAGCCUGUGGGCCUGAGACACACUGGUUAUGUCAUUGAACUGCAGAAUA` has a bound/input enrichment of 0.228 ratio.
With `UCCCCCUCACUUUUUCUCCUUAUUAUUGAGAGUAUAAACCUGCAAAGCUCAGCUCUACUUUGGUUUUGAAAGUUGAAGCUUCUCUGCUUCCGUGCGAGCACAGGCCUCUGUCCCCUUCGA` the bound/input enrichment was 0.297 ratio.
For `AUCUAUGAACCAAAGACGUUUAAAUCUUUGGCUGCAUUGGCUAAGCGGAGGCAGCAGGAGGGAUUUGCUGCAGCUUUGGGGGAUGGAAAGGAGCCUGAAGGUAUCUUUUCCAGAGUGGUG`, the bound/input enrichment was 0.328 ratio.
